{"data": "Published values of several laboratories", "target": "Mitogen-activated protein kinase 8 (MAPK8, Homo sapiens, UniProt P45983)", "note": "Compare with care: the assays were run in different laboratories. “And” joins repeats or separate records; there may be more than shown.", "sequence of UniProt P45983 (whole entry, looked up)": "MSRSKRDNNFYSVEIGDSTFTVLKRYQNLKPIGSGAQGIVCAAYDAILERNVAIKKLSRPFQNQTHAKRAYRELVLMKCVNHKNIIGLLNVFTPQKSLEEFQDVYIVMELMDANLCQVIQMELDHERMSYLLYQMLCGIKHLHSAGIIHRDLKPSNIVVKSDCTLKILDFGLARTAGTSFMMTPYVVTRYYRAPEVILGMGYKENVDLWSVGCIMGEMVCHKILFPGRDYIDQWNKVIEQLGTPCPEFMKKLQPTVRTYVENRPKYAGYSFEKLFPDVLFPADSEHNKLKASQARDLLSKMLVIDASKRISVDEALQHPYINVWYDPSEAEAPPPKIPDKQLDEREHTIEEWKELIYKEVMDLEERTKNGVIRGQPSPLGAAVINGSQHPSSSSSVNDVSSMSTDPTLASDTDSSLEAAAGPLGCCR"}
{"Compound": "Nc1nnc(-c2ccncc2)s1", "test": "binding, isothermal titration calorimetry", "quantity": "ligand efficiency", "value": 0.44}
{"Compound": "CC(C)C[C@@H](C=O)NC(=O)[C@H](CC(C)C)NC(=O)[C@H](CC(C)C)NC(=O)OCc1ccccc1", "test": "degrader, western blot, item: JNK over tubulin", "system": "HeLa", "conditions": "concentration not given", "scale": "reference: untreated control", "quantity": "relative protein level", "value": 1.28}
{"Compound": "O=C(Nc1nnc(-c2ccncc2)s1)C(F)(F)Cl", "test": "binding, isothermal titration calorimetry", "quantity": "association constant", "value": "53900 M⁻¹"}
{"Compound": "Cc1nc(NC(=O)N2CCC[C@H]2C(N)=O)sc1-c1ccnc(C(C)(C)C(F)(F)F)c1", "test": "KINOMEscan", "conditions": "10 µM", "quantity": "remaining binding", "value": "55%"}
{"Compound": "Cc1cc(-c2cccc(-n3cc(COC(=O)[C@]4(C)C=C(C(=O)OC(C)(C)C)C(=O)CC4)nn3)c2)c(C)c2c1CNCC2", "test": "D-peptide binding, inhibitor, FP peptide displacement", "conditions": "1.562 µM", "scale": "lower is stronger displacement", "quantity": "fraction bound", "value": 0.803}
{"Compound": "Cc1cc(NC(=O)c2cccc(NC(=O)/C=C/CN(C)C)c2)ccc1Nc1nccc(-c2cccnc2)n1", "test": "enzyme activity, inhibitor", "conditions": "2.79e-05 µM, 0 h, unit not given, together with: GSH 10 mM pre-incubation", "scale": "reference: vehicle", "quantity": "remaining activity", "value": 1.03}
{"Compound": "C#CCCOC(=O)[C@]1(C)C=C(C(=O)OC(C)(C)C)C(=O)CC1", "test": "D-peptide binding, inhibitor, FP peptide displacement", "conditions": "50 µM", "scale": "lower is stronger displacement", "quantity": "fraction bound", "value": 0.125}
{"Compound": "C[C@@H](c1ccc(-n2cnc3c(N)ncnc32)cc1)N1CCc2nn(C)c(Cc3ccccc3)c2C1=O", "test": "KINOMEscan", "conditions": "0.1 µM", "scale": "reference: DMSO control", "quantity": "remaining binding", "value": "50%"}
{"Compound": "CCN(CC)c1ccc(C2=NNC(=O)CC2C)cc1[N+](=O)[O-] (stereo not shown)", "test": "enzyme activity, inhibitor", "conditions": "10 µM", "scale": "reference: vehicle", "quantity": "remaining activity", "value": "121%"}
{"Compound": "O=C(Nc1nnc(-c2ccncc2)s1)C(F)(F)Br", "test": "binding, isothermal titration calorimetry", "quantity": "association constant", "value": "71800 M⁻¹"}
{"Compound": "CCCOc1ccc(OC)c(F)c1C(=O)c1ccc(C(=O)N[C@@H]2CNC[C@H]2NC(=O)c2ccc3[nH]ncc3c2)cc1", "test": "enzyme activity", "conditions": "10 µM", "quantity": "remaining activity", "value": "97%"}
{"Compound": "O=C(Nc1nnc(-c2ccncc2)s1)C(F)(F)I", "test": "binding, isothermal titration calorimetry", "quantity": "association constant", "value": "95700 M⁻¹ and 105000 M⁻¹ and 99900 M⁻¹"}
{"Compound": "CNc1ncc2c(/C=C/C(=O)N3CCC(OC)CC3)nn(Cc3cccc(C(F)(F)F)c3)c2n1", "test": "kinase activity, inhibitor", "conditions": "1 µM", "scale": "reference: untreated control", "quantity": "remaining activity", "value": "91%"}
{"note": "Some of these lines once more:"}
{"Compound": "CC(C)C[C@@H](C=O)NC(=O)[C@H](CC(C)C)NC(=O)[C@H](CC(C)C)NC(=O)OCc1ccccc1", "test": "degrader, western blot, item: JNK over tubulin", "system": "HeLa", "conditions": "concentration not given", "scale": "reference: untreated control", "quantity": "relative protein level", "value": 1.28}
